Experimental data collected from several papers.
A part holds a random share of what one study measured. Positions count from the first letter of the parent shown.

Study 1 — technique: RNA Bind-n-Seq; form: RNA; medium: in vitro; concentration: 200 nM; notes: whole 134-nt RNA, ends assumed; with: 150 mM KCl; reference: input library; reading: higher = stronger binding
Target: Fragile X messenger ribonucleoprotein 1, C-terminal low-complexity region (Fmr1, Mus musculus, UniProt P35922)
| Sequence | log2 enrichment |
| --- | --- |
| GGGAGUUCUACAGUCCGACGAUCACCAUGCAGGUGGGCAUCUUUGGGAAGUGGGGCAAGGGGGGGAUAGGGAGGGGGGUAACACUUUGAAAACAGGUGGUCCCAGGUCGUUUCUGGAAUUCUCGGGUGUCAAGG | 0.799 |
| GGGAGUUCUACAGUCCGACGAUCUAACUUUAGAGGAGGAUCUGAUGGAUAUGGCAGUGGACGUGGAUUUGGGGAUGGCUAUAAUGGGUAUGGAGGAGGACCUGGGGGUGGCAAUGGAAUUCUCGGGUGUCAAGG | 0.0985 |
| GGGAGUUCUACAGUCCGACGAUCAGUCCUGUGCUACACAUCGUAUGUACCGAAUCGGGAAAGGGUUUUUGGGUUUUUGGGAAAGUAUUAUGUUACGCCGUUCGGAUCUGCACUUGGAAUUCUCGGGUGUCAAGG | 0.183 |
| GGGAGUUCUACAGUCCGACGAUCACCAUGCAGGUGGGCAUCUUUGGGAAGUGGGGCAAGGGGGGGAUAGGGAGGCGGGUAACACUUUGGGAACAGGUGGUCCCAGGUCGUUUCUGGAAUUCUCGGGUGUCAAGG | 0.736 |
| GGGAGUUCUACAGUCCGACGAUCAAGUCCUGUGCUACACAUCGUAUGUACCGAAUCGGUUUUUGGUUUGGUUUUUUUGGAAAGUAUUAUGUUACGCCGUUCGGAUCUGCACUUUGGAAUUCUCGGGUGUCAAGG | -0.908 |
| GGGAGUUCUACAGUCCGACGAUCUCAAGUCCUGUGCUACACAUCGUAUGUACCGAAUCGGUGGAAAGGUUUUUUUGGAAAGUAUUAUGUUACGCCGUUCGGAUCUGCACUUCCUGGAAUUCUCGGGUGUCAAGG | -0.629 |
| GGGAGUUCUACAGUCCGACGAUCUGGGAGGUGGAUUUUGUUUAUUUUUUUAGCUCAUUUCCAGGGGUGGGAAUUUUUUUUUAAUAUGUGUCAUGAAUAAGGUUGUUUUUGAAAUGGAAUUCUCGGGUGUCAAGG | 0.479 |
| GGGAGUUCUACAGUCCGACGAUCCAAGUCCUGUGCUACACAUCGUAUGUACCGAAUCGGCCCGGGGCCCGGGGCCCGGGAAAGUAUUAUGUUACGCCGUUCGGAUCUGCACUUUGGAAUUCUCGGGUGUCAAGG | -0.463 |
| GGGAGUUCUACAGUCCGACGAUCUAACUUUAGAGGAGGAUCUGAUGGAUAUGCCAGUGGACGUGGAUUUGGGGAUGGCUAUAAUGGGUAUGGAGGAGGACCUGGAGGUGGCAAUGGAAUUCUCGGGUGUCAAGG | 0.33 |
| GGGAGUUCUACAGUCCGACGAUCAGUCCUGUGCUACACAUCGUAUGUACCGAAUCGGGGUUUUUGGGUUUUUGGUUUUUGGAAAGUAUUAUGUUACGCCGUUCGGAUCUGCACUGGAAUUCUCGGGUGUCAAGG | -0.358 |
| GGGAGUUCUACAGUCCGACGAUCCCUGUGCUACACAUCGUAUGUACCGAAUCGUGUGUGUGUGUGUGUGUGUGUGUGUGUGUGUAAAGUAUUAUGUUACGCCGUUCGGAUCUGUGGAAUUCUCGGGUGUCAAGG | 0.656 |
| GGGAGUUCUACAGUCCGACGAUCCCUGUGCUACACAUCGUAUGUACCGAAUCGGGUUUUUUGGGGUUUUUUGGUUUUUUGGGGAAAGUAUUAUGUUACGCCGUUCGGAUCUGCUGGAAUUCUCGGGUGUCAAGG | -0.363 |
| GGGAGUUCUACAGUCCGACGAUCUCAAGUCCUGUGCUACACAUCGUAUGUACCGAAUCGGGCCCGGCCCGGCCCGGGAAAGUAUUAUGUUACGCCGUUCGGAUCUGCACUUCCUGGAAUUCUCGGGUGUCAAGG | -0.503 |
| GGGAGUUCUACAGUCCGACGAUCCCUCAAGUCCUGUGCUACACAUCGUAUGUACCGAAUCGGGGAGGGGAGGGAGGAAAGUAUUAUGUUACGCCGUUCGGAUCUGCACUUCCAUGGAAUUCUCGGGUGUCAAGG | 0.58 |

Study 2 — target: CCNA1, cyclin fold, Cln2 fusion (human); technique: yeast growth competition, sequencing; medium: yeast; notes: weak parent motif; reference: not given; reading: higher = stronger binding
Starting sequence: PKN2 docking peptide (human); VSAVQKLDFSDTM
| Substitution | normalised enrichment score |
| --- | --- |
| T12C | 0.332 |
| V1P | 0.351 |
| F9V | 0.0233 |
| M13V | 0.252 |
| D8M | 0.217 |
| K6G | 0.317 |
| D11V | 0.232 |
| S2K | 0.254 |
| F9N | 0.312 |
| V1N | 0.149 |
| K6T | 0.195 |
| S2E | -0.0348 |
| A3T | 0.12 |
| K6C | 0.251 |
| S2P | 0.145 |
| D8C | 0.255 |
| D8V | 0.213 |
| S2V | 0.263 |
| K6Q | 0.518 |

Study 3 — target: CRIPT, C-terminal peptide; technique: DHFR complementation, deep sequencing; medium: yeast; reference: wild type; reading: higher = weaker binding
Notes: single substitutions, model-inferred values
Starting sequence: ERBIN, PDZ domain 1 (human); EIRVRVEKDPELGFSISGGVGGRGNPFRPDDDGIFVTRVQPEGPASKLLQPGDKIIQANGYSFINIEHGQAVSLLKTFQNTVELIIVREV; partner TKNYKQTSV
| Substitution | binding free energy change [kcal/mol] |
| --- | --- |
| S62Q | 0.0553 |
| R88S | 0.429 |
| I64V | 0.0865 |
| E1V | 0.156 |
| I34M | 0.33 |
| K54Y | 0.842 |
| S73P | 1.21 |
| G24D | 1 |
| E1W | 0.121 |
| Q40M | 0.134 |
| I16M | 0.627 |
| G21E | -0.0433 |
| E89K | 0.0881 |
| T77Y | 0.179 |
| Q79C | 0.0313 |
| V36Y | 0.86 |
| A58L | 1.06 |

Study 4 — technique: protein-binding microarray; form: double-stranded DNA, one strand shown; medium: in vitro; concentration: 0.8 µM; notes: whole 60-bp probe, no competitor; reading: higher = stronger binding
Target: Centromere-binding protein 1, full length, N-terminal tag (CBF1, Saccharomyces cerevisiae, UniProt P17106, residues 1-351)
Sequence of UniProt P17106 (whole entry, looked up): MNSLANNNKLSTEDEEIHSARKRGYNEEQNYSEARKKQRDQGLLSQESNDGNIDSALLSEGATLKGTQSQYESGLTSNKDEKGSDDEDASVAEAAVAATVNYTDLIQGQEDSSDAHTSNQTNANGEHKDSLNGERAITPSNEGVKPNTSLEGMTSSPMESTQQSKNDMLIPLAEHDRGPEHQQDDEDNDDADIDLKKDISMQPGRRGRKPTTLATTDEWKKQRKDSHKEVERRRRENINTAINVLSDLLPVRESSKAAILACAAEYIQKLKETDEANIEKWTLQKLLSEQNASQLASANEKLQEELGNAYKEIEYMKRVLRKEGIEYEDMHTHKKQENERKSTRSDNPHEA
| Sequence | fluorescence intensity [a.u.] |
| --- | --- |
| GAATATCTCCATTGTACCGTGATTAAATAAAAATAGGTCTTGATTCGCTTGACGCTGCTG | 1010 |
| CTATTTGGCTCAGCAAACGTGCAGCACCATGATTTCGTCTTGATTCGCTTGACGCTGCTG | 571 |
| GAATAACAATACCATTACATCAGCCGATAATATTAGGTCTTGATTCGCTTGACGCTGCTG | 543 |
| GAAAGATATAAATCTAACGTGGATTTGTTACAGTAGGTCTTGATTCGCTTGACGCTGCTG | 524 |
| GAACTCGAGAGAAAGCACGTTCCAGGAATCTGCTAGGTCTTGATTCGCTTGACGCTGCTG | 683 |
| CTAGTTATTCTGTGTGTCATGACTCTCACTTCGTTCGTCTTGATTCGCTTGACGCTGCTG | 576 |
| CTAATTTGAGTAGATCTGATGCGCAATGTCTATTTCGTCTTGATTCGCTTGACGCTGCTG | 485 |
| CTATATATGTGAGCGCACGATCGCTCCAAAAACTTCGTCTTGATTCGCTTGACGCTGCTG | 505 |
| GAATTTGTATCTTTTGACGTGATCAAAAGTAATTAGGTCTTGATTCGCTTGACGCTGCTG | 747 |
| CTATTGCTGGCTTGCCACGTGATGGCAATAGGCTTCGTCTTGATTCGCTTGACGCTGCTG | 10200 |
| CTACTCCGGGTGAACCCCACGACAACTTACCTGTTCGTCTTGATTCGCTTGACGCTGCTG | 477 |
| GAATAAGTTTTCTGTCAGCTGACTGTCCACCAATAGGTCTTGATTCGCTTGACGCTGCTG | 5060 |
| GAAGTACGTTTGTACGAGGTGACGCGTTACTAATAGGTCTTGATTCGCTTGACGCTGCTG | 503 |
| GAACCTCCGCCACATCAGGTATTGTTCCAACACTAGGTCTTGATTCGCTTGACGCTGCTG | 527 |
| GAATAAGTAATTTCTAACGTGATAAAGTAGTTATAGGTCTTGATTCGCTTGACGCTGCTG | 688 |
| CCTAACTACTATATCCGCGTGTTATAGCTTCGTACAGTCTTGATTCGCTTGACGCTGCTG | 580 |
| GAAGAAGTCCTTACTCAGCTGAAAAAGAGAAGCTAGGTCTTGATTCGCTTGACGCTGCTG | 535 |
| CTATTTTCTTATATACAGGAGATGGGTGGCCACTTCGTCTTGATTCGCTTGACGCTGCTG | 534 |
| CCTAACTACTATAGGCACGTGGCATAGCTTCGTACAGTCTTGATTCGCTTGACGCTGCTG | 9190 |
| CTAGCCACAAGTACTCAGGTGTCCTATGAAGCATTCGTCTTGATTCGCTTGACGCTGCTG | 539 |
| CTAGGTAGTCTAAAGAACGTGCATCAGAGAAGATTCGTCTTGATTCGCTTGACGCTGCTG | 812 |
| CTAATTCAAGGCCACCACGTAGCCTTATACACCTTCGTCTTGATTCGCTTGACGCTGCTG | 497 |
| CTACAACTCGTGTCTCACGAGAGCGCCACTTAATTCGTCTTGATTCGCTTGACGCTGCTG | 560 |

Study 5 — technique: universal PBM; form: double-stranded DNA, one strand shown; medium: in vitro; concentration: 600 nM; reading: higher = stronger binding
Target: Sal-like protein 4, full length isoform A (SALL4, Homo sapiens, UniProt Q9UJQ4, residues 1-1053)
Sequence of UniProt Q9UJQ4 (whole entry, looked up): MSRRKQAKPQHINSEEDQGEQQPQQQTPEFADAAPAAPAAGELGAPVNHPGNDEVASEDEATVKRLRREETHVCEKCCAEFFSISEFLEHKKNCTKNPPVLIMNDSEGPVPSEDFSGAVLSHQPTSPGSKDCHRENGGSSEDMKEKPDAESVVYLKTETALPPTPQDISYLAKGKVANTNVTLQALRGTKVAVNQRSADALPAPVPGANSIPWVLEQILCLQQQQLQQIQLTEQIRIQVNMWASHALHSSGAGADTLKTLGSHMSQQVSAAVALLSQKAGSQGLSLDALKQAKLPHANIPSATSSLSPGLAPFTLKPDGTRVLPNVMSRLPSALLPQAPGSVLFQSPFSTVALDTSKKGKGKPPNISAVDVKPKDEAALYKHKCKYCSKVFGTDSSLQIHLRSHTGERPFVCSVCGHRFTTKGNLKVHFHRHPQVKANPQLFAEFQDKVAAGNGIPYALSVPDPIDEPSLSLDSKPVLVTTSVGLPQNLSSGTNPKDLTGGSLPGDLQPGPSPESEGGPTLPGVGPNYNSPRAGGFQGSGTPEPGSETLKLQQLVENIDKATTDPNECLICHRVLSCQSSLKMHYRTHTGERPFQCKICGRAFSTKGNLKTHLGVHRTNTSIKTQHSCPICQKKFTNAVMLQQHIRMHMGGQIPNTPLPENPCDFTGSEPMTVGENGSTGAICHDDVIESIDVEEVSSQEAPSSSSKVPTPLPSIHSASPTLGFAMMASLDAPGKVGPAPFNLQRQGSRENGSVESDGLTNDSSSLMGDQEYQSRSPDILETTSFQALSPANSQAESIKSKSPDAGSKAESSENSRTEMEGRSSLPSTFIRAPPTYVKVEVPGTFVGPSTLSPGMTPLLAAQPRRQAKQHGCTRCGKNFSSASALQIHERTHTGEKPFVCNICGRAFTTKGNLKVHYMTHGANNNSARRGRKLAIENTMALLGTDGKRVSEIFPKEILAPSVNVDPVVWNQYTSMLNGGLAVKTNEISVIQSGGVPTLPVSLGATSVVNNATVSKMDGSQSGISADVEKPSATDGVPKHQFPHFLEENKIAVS
Notes: 8-mer, flanks averaged, mean of replicates
| Sequence | E-score |
| --- | --- |
| TGCTTTAA | 0.105 |
| ACCATGGA | -0.146 |
| CATACAGC | 0.0235 |
| CTTGAATC | 0.0909 |
| ACCTTCAT | 0.0163 |
| AGAAACAG | 0.0226 |
| ACAACCTA | -0.0382 |
| CCAGCTTC | -0.201 |
| CCCTAAGG | -0.189 |
| ATCCTGCC | -0.278 |
| CAGTCAGA | -0.0431 |
| GAGTTCGC | -0.303 |
| AGTGGCCA | -0.15 |
| CCGAGAAA | 0.0877 |
| CGGTCCAC | -0.357 |
| AAGCCGCG | -0.208 |
| TCTTATAA | 0.287 |
| ATTCTGTC | -0.0212 |
| ATGCGAGA | 0.0702 |
| GATCGACA | 0.0418 |

Study 6 — technique: DHFR PCA, deep sequencing; medium: yeast; with: (+)-ABA 2500 µM; reference: wild-type fitted maximum; reading: higher = stronger binding
Target: ABI1, truncated, D143A, DHFR fusion (Arabidopsis thaliana)
Notes: methotrexate growth selection, single substitutions
Starting sequence: PYL1, truncated, DHFR fusion (Arabidopsis thaliana); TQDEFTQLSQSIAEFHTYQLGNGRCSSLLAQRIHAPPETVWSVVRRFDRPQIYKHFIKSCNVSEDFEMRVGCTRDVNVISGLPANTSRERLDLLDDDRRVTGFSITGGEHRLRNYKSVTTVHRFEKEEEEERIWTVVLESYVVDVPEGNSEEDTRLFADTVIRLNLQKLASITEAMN
| Substitution | relative binding score [%] |
| --- | --- |
| N165P | -3.99 |
| L91R | 38.2 |
| P83Y | 49.9 |
| G81I | 33.8 |
| V70F | 79.2 |
| G148C | 91.7 |
| I162S | 58.8 |
| V70D | 87.5 |
| D95M | 93.9 |
| E139I | 92.2 |
| S59G | 96.2 |
| H34V | 96.6 |
| S27K | 86.9 |
| D75R | 95.8 |
| K126Q | 101 |
| F56Q | 51.2 |
| S117I | -2.68 |
| S11Y | 88.8 |
| L93I | 107 |
| C25D | 10.2 |
| D96E | 100 |
| D95V | 78 |
| S9Q | 107 |
| L156H | 95.8 |
| V137I | 105 |

Other studies, line by line
| Substance | target | test | test system | conditions | scale | measurement | value |
| --- | --- | --- | --- | --- | --- | --- | --- |
| PhoQ, residues 284 288 289 292 302 303 NLSRDF | PhoP, residues 12 14 15 18 19 LHSVW (Escherichia coli, UniProt P23836) | Sort-seq, measured: YFP reporter | E. coli | PhoQ-PhoP variant library, with: 10 µM Mg2+ | reference: high Mg2+ state, higher = stronger signaling | fold induction | 2.58 |

Some of these lines once more (study 5):
| Sequence | E-score |
| --- | --- |
| ACCATGGA | -0.146 |
| CATACAGC | 0.0235 |
| CTTGAATC | 0.0909 |
| ACCTTCAT | 0.0163 |
| AGAAACAG | 0.0226 |
| ACAACCTA | -0.0382 |
| CCAGCTTC | -0.201 |
